# Results from different studies.
# Compare with care: the assays were run in different laboratories.
SMILES,target or system,assay,test system,setting,scale,endpoint,value
COC1CN([C@H]2CC[C@H]([C@@]3(C)Oc4c(Cl)cc(C(=O)NCc5c(SC)cc(C)[nH]c5=O)c(C)c4O3)CC2)C1,,"RNA-seq, refers to: FAM131B mouse homolog","mouse, HT-1376 xenograft, whole blood",dose not given,baseline: vehicle,log2 fold change,0.789
C=CC(=O)N1[C@H](c2ccc3c(c2)OCO3)c2[nH]c3ccccc3c2C[C@@H]1C(=O)N1CCN(C)CC1,human cyclin E1 N112C-3xFLAG:CDK2,"co-IP with TMT proteomics, refers to: DNAJA1",,"concentration not given, P31689",baseline: wild type DMSO,relative co-enrichment,114%
C=CC(=O)Nc1cccc(Cn2ncc3cnc(Nc4cnn(CCOC)c4)nc32)c1,MEK3 human,"binding, KINOMEscan",,100 nM,lower = stronger binding,percent of control,75%
Cc1ncsc1-c1ccc(C(C)NC(=O)C2CC(O)CN2C(=O)C(NC(=O)CCCCCCCCCCN2CCCC(Nc3ncc(Cl)c(Nc4ccccc4S(=O)(=O)C(C)C)n3)C2)C(C)(C)C)cc1 (stereo not drawn),22Rv1,"RNA-seq, refers to: POLM mRNA",,concentration not given,baseline: DMSO,log2 fold change,-1.01
Nc1ncc(-c2cc(-c3cnn(CC(F)(F)F)c3)ncc2F)nc1C(=O)NC1CNCC(F)C1 (stereo not drawn),BMPR1B,KINOMEscan,,1 µM,baseline: DMSO control,remaining binding,59%
CN1CCCNC(=O)c2cccc(c2)C(=O)NCCCN(C)CCCNc2cccc3c2C(=O)c2cccc(c2C3=O)NCCC1,SAS,"RNA-Seq, refers to: LUC7L2 mRNA",,"1 µM, 6 h",baseline: untreated cells,log2 fold change,-0.824
C=C(NC(=O)c1csc(-c2nc3c(cc2O)-c2nc(cs2)C(=O)NC(C(C)O)C(=O)NC(=C(C)OC)c2nc(cs2)C(=O)NC2c4nc(cs4)C(=O)NC(COC(=O)c4c5c6c(cccc6n4O)COC(=O)C(OC4CC(C)(O)C(N(C)C)C(C)O4)C2OC5)c2nc-3cs2)n1)C(N)=O (stereo not drawn),Staphylococcus aureus,microbial growth,MSSA,clinical isolate,,MIC90,0.0156 µg/mL
CCN(CC)CC(=O)Nc1cccc(-n2cc(-c3ccc4ccc(-c5cn(-c6cccc(NC(=O)CN(CC)CC)c6)nn5)cc4c3)nn2)c1,RCC4,"PCR angiogenesis array, refers to: CDH5",,"5 x IC50, 4 h, normoxia",baseline: untreated,fold regulation,1.04
CNS(=O)(=O)Nc1nccc(Cc2c(C)c3ccc(Oc4ncccc4F)cc3oc2=O)c1F,MFE-296,cell viability,,7 days,,IC50,> 1000 nM

# For quick reference, copied from above:
SMILES,target or system,assay,test system,setting,scale,endpoint,value
Cc1ncsc1-c1ccc(C(C)NC(=O)C2CC(O)CN2C(=O)C(NC(=O)CCCCCCCCCCN2CCCC(Nc3ncc(Cl)c(Nc4ccccc4S(=O)(=O)C(C)C)n3)C2)C(C)(C)C)cc1 (stereo not drawn),22Rv1,"RNA-seq, refers to: POLM mRNA",,concentration not given,baseline: DMSO,log2 fold change,-1.01
